Published values gathered from unrelated publications.
Each line is one published result; not all experiments were run side by side. “And” joins repeats or separate records; there may be more than shown. ± marks the error that the study gave.
UniProt A5GZW8, sequence (whole entry, looked up): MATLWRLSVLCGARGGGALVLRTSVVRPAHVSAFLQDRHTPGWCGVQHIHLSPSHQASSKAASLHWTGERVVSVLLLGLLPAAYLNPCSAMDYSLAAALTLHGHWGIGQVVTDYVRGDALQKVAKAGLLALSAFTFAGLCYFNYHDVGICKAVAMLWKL
UniProt Q007T0, sequence (whole entry, looked up): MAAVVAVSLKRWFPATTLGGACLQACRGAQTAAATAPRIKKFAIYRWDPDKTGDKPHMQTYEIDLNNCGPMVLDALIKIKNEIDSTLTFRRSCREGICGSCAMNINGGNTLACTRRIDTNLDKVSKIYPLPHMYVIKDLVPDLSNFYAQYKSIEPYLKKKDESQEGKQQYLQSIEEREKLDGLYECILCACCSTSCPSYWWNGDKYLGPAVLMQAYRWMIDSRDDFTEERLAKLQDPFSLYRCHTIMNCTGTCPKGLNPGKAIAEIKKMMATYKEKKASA
UniProt D0VWV4, sequence (whole entry, looked up): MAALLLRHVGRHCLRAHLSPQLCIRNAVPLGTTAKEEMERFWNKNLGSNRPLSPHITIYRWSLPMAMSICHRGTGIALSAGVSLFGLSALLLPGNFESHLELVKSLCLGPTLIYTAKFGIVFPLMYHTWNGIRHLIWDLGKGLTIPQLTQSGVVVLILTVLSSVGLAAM
UniProt Q6DWJ6, sequence (whole entry, looked up): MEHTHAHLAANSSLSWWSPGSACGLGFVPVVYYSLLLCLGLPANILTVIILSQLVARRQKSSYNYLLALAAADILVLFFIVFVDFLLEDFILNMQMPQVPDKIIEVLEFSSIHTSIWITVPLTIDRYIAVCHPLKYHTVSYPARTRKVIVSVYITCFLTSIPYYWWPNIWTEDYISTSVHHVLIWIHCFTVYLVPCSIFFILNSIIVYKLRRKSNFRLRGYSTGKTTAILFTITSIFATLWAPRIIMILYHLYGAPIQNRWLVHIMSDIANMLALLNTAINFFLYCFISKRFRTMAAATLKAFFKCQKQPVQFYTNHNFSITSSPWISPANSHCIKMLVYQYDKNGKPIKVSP
UniProt Q9UM07, sequence (whole entry, looked up): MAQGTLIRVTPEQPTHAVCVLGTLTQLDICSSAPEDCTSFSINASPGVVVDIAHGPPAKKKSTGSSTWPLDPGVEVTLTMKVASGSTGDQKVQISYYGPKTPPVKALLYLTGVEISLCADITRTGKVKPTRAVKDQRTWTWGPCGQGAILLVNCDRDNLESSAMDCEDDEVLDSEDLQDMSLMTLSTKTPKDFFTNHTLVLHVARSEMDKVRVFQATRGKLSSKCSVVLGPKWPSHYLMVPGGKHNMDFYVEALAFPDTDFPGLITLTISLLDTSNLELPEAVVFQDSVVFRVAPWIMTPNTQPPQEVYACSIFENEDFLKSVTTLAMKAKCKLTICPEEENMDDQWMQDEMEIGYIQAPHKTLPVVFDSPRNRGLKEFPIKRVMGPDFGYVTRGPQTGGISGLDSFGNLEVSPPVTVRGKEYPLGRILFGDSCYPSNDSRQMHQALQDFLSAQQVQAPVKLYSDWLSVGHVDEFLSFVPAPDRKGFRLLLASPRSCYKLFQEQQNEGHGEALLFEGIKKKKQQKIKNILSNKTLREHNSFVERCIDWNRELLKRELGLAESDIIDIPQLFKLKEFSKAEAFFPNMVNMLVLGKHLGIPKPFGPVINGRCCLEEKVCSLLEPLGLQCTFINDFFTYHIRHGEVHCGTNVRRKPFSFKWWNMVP
UniProt Q13568, sequence (222-425, looked up): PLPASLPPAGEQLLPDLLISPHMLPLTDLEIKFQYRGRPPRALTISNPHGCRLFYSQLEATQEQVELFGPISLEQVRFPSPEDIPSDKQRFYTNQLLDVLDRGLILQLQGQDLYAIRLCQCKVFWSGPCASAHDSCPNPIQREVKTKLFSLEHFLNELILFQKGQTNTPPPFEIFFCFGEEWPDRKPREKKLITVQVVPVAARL
UniProt O75385, sequence (whole entry, looked up): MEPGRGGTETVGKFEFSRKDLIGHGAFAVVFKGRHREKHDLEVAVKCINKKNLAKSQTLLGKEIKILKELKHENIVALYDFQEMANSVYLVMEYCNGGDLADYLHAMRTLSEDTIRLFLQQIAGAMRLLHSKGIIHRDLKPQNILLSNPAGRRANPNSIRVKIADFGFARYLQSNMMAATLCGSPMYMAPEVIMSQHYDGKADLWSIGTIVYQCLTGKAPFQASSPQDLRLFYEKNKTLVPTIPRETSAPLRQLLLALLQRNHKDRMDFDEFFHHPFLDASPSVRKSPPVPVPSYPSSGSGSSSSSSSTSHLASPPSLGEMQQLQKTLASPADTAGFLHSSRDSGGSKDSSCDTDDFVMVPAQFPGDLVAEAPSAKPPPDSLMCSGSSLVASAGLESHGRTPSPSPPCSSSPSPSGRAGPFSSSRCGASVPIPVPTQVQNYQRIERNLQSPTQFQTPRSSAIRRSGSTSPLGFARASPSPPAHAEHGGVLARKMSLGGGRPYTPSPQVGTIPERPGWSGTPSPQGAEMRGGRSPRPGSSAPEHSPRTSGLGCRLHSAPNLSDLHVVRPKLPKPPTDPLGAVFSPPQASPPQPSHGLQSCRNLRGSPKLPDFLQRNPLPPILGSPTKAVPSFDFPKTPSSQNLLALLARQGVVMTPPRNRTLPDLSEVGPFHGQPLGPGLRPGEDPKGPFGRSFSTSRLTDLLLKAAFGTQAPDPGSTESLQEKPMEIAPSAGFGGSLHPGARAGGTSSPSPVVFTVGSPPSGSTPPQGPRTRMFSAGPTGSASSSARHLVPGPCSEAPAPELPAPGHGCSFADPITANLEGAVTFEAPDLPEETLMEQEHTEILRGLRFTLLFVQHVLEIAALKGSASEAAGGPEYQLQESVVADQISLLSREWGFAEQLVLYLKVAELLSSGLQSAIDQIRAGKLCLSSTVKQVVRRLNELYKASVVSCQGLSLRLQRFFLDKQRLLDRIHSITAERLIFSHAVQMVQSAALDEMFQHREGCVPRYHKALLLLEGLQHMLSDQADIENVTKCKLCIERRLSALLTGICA
UniProt P47936, sequence (whole entry, looked up): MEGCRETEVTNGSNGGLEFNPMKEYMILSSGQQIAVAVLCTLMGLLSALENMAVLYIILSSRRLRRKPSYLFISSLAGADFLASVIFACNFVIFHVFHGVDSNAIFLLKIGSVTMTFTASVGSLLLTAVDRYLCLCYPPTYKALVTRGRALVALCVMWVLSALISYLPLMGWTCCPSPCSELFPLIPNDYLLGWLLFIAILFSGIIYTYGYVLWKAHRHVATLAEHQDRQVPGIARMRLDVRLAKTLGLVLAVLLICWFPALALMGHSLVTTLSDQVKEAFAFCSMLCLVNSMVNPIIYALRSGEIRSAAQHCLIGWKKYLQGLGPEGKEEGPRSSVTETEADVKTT
UniProt P0A988, sequence (whole entry, unmodified, looked up): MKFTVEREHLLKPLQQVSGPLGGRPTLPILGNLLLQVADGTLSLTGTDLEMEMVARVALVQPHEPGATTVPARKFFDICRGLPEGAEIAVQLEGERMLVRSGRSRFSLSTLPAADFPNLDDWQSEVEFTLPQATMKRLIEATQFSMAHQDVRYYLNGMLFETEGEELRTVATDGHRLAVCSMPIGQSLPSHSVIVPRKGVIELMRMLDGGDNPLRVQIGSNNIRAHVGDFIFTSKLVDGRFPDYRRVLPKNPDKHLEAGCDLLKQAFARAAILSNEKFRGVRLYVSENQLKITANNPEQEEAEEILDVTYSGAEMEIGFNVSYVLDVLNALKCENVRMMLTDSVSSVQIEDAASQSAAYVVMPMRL
UniProt Q08460, sequence (whole entry, looked up): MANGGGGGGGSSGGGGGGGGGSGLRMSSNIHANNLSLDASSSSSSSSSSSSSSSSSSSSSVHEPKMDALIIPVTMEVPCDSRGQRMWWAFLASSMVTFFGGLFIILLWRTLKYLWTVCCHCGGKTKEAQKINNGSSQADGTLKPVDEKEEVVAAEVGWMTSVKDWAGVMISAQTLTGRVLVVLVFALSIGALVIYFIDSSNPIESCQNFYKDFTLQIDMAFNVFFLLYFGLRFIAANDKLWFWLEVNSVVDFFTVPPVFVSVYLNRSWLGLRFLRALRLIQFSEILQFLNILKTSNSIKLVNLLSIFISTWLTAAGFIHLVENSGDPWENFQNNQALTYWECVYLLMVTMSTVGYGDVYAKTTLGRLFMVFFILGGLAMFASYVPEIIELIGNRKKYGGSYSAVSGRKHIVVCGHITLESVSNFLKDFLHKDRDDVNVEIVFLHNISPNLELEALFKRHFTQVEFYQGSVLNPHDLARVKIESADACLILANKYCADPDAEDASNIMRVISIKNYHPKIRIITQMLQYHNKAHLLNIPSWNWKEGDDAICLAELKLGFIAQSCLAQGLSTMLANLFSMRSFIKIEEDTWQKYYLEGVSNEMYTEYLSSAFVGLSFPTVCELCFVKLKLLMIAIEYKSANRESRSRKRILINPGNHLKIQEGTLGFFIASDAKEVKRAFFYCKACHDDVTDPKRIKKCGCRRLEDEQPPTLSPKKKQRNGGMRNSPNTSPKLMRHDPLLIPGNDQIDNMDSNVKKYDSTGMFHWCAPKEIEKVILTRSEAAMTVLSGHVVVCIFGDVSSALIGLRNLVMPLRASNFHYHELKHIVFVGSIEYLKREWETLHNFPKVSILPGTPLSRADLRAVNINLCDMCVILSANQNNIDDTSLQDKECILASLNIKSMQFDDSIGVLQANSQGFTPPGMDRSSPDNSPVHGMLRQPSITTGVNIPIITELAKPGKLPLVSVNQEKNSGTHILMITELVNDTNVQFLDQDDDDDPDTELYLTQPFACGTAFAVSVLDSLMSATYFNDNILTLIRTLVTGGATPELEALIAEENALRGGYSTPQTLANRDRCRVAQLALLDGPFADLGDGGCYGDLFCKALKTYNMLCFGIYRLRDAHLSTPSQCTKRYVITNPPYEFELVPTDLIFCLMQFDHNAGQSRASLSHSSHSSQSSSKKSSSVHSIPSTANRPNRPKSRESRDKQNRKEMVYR

Structure (SMILES) | target | test | system | setting | how to read | measurement | result
CCN1CCN(Cc2ccc(C(=O)Nc3ccc(C)c(NCc4cnc5[nH]ccc5c4OC)c3)cc2C(F)(F)F)CC1 | Cyclin-dependent kinase 13 (CDK13, Homo sapiens, UniProt Q14004) | binding, competition with immobilised ligand | – | 1 µM | – | remaining binding | 94%
COCC1CCCCN1C(=O)n1cc(C(O)(c2ccccc2)c2ccccc2)nn1 (stereo not drawn) | Platelet-activating factor acetylhydrolase 2, cytoplasmic (Mus musculus, UniProt Q8VDG7) | probe labelling, inhibitor, competitive ABPP-SILAC | mouse T cells | concentration not given, 4 h, protein level | baseline: treated over DMSO cells, lower = stronger inhibition | SILAC activity ratio | 1.27
COc1ccccc1-c1n[nH]c2nc(N[C@H]3CC[C@H](NS(=O)(=O)CC(C)C)CC3)ncc12 | cdc2-related kinase 12 (Leishmania donovani, UniProt A0A3S7WQK2) | kinobead competition pull-down | Leishmania donovani, cell extract | 0.4 µM, unit not given | baseline: vehicle | remaining binding | 0.26
COc1ccc(F)cc1S(=O)(=O)Nc1cnc2c(c1)C(=O)NCCO2 | Peroxisome proliferator-activated receptor gamma (PPARG, Homo sapiens, UniProt P37231) | ligand displacement, radioligand | – | 10 µM | – | inhibition | -6%
CCOC(=O)[C@](CC)(CCCSCCOCCOCCNC(=O)c1ccc(-c2c3ccc(=N)c(S(=O)(=O)O)c-3oc3c(S(=O)(=O)O)c(N)ccc23)c(C(=O)O)c1)NC(=O)c1ccc(C2CC2)c(Cc2ccc(F)cc2)n1 | Cannabinoid receptor 2 (Cnr2, Mus musculus, UniProt P47936) | cAMP, agonist | – | – | – | Emax | 80%
O=C1NC(=O)c2c1c1cc(F)c[n+]3c1c1c2c2cc(O)ccc2[n]1[Ru-4]312([N]=C=S)[S+]3CC[S+]1CC[S+]2CC3 (stereo not drawn) | Tyrosine-protein kinase ITK/TSK (ITK, Homo sapiens, UniProt Q08881) | enzyme activity | – | 100 nM, human enzyme, added: 10 µM ATP | baseline: untreated | remaining activity | 66%
CC[C@H](C)[C@H](NC(=O)[C@H](CCCNC(=N)N)NC(=O)[C@H](CCCNC(=N)N)NC(=O)[C@H](CC(C)C)NC(=O)[C@H](Cc1ccccc1)NC(=O)CNC(=O)CNC(=O)[C@@H](N)Cc1ccc(O)cc1)C(=O)N[C@@H](CCCNC(=N)N)C(=O)N1CCC[C@H]1C(=O)N[C@@H](CCCCN)C(=O)N[C@@H](CC(C)C)C(=O)N[C@@H](CCCCN)C(=O)O | Probable G-protein coupled receptor 139 (GPR139, Homo sapiens, UniProt Q6DWJ6) | G protein activation, agonist, BRET, measured: Gα14 | HEK-293T/17 | 40 µM | baseline: GαoA response | Emax | 20.8% and 30.4%
COc1ccc(CC(=O)N2CCN(CC(OCc3ccc4ccccc4c3)c3ccc(Cl)cc3Cl)CC2)cc1 (stereo not drawn) | Serine/threonine-protein kinase ULK1 (ULK1, Homo sapiens, UniProt O75385) | enzyme activity, inhibitor, ADP detection | – | 0.1 µM | – | activity vs control | 146%
CN(C)CCCN1C(=O)CSC1c1ccccc1 (stereo not drawn) | uncharacterized protein (Anopheles gambiae, UniProt Q7QFG0) | Ellman | – | 1000 µM, added: acetylthiocholine | – | IC50 | inactive
O=C(N[C@@H]1c2ccccc2C[C@H]1N1CCCC1)c1ccc(-c2ccnc3[nH]ccc23)nc1 | Serine/threonine-protein kinase N1 (PKN1, Homo sapiens, UniProt Q16512) | binding, competition with immobilised ligand | – | 3 µM | – | remaining binding | 8.6%
CC(C)[C@H]1NC(=O)C[C@H]2/C=C/CCSSC[C@@H](NC1=O)C(=O)N[C@H](Cc1cccc3ccccc13)C(=O)NCC(=O)O2 | Lymphokine-activated killer T-cell-originated protein kinase (PBK, Homo sapiens, UniProt Q96KB5) | enzyme activity, inhibitor | – | 10 µM | – | inhibition | 7.9%
CN(C)[C@H]1C[C@@]23CC[C@@]4(O2)C(=CC[C@]2(C)[C@@H](c5ccc6ccncc6c5)CC[C@H]24)C=C3[C@@H](O)[C@@H]1O | Serine/threonine-protein kinase/endoribonuclease IRE1 (ERN1, Homo sapiens, UniProt O75460) | ATP probe labelling, inhibitor, KiNativ profiling | – | 0.1 µM | – | inhibition | -14.6%
CC[C@@H](C)[C@@H](NC(=O)[C@@H](CCC(N)=O)NC(=O)[C@H](NC(=O)[C@H]1CCCN1C(=O)[C@H](NC(=O)[C@@H](CO)NC(=O)[C@@H](Cc1ccccc1)NC(=O)[C@H]1CCCN1C(=O)[C@@H](CCC(N)=O)NC(=O)[C@H](N)CCSC)[C@H](C)CC)C(C)C)C(=O)N[C@@H](C(=O)N[C@H](CC(C)C)C(=O)N[C@H](CCC(N)=O)C(=O)NCC(=O)N[C@H](CO)C(=O)N[C@H](CCCNC(=N)N)C(=O)N[C@H](CCCNC(=N)N)C(=O)N[C@H](CCCNC(=N)N)C(=O)N[C@H](CCC(N)=O)C(=O)NCC(=O)N[C@H](CCCNC(=N)N)C(N)=O)[C@H](C)O | Kcnma1 (Mus musculus, UniProt Q08460) | ion current, blocker, inside-out patch clamp | Xenopus oocytes | +140 mV, added: 10 µM cytosolic Ca2+ | – | Hill coefficient | 0.96
C#CCCCCOc1ccc2c(c1)CCCN2C(=O)CCl | Tumor protein D54 (Homo sapiens, UniProt O43399) | mass spectrometry profiling, measured: TPD52L2 | H460 cell lysate | 100 µM over 10 µM, UniProt O43399 | baseline: high over low concentration | reactivity ratio | 1.55
CN(C)CCCSC(=S)N1CCN(C(=O)/C=C/c2coc3ccccc3c2=O)CC1 | Nucleoprotein (N, Tomato spotted wilt virus, UniProt P25999, R94A) | binding, microscale thermophoresis | – | 31.25 µM | dose series | MST response | 843 a.u.
N[C@H](C(=O)N1CCCC1)C1CCN(c2nccc3c(-c4ncc(Cl)cc4Cl)cccc23)CC1 | Protein-arginine deiminase type-4 (PADI4, Homo sapiens, UniProt Q9UM07) | enzyme activity | – | 0.6144 µM, high-affinity site, added: Ca2+ 1.5 mM | – | kcat | 1.18 s⁻¹ and 1.23 s⁻¹
CCOC(=O)[C@@H]1Cc2c(cc([N+](=O)[O-])cc2[N+](=O)[O-])[C@H](O)[C@]12C(=O)Nc1ccc(Br)cc12 | Serine/threonine-protein kinase PLK4 (PLK4, Homo sapiens, UniProt O00444) | binding, competition with immobilised ligand | – | 0.1 µM | – | remaining binding | 45%
CC[C@H](C)[C@H](NC(=O)[C@H](CC(C)C)NC(=O)[C@@H](NC(=O)[C@@H](NC(=O)[C@H](CCSC)NC(C)=O)[C@@H](C)CC)[C@@H](C)CC)C(=O)N[C@H](C(=O)N[C@@H](CO)C(=O)N[C@@H](Cc1ccccc1)C(=O)N1CCC[C@H]1C(=O)N[C@@H](CCCCN)C(=O)N[C@@H](Cc1c[nH]cn1)C(=O)N[C@@H](CCCCN)C(=O)N[C@@H](CC(=O)O)C(=O)N[C@@H](Cc1c[nH]c2ccccc12)C(=O)N[C@@H](CCCCN)C(=O)N[C@H](C(=O)N[C@H](C(=O)N[C@@H](CC(C)C)C(=O)N[C@H](C(=O)N[C@@H](CCCCN)C(N)=O)C(C)C)[C@@H](C)CC)C(C)C)[C@@H](C)CC | Interferon regulatory factor 5, residues 222-425 (IRF5, Homo sapiens, UniProt Q13568) | thermal shift | – | – | – | melting temperature | 41.53 ± 0.35 °C
OC1Cc2ccccc2CC1N1CCC2(C=Cc3cc(Br)ccc32)CC1 (racemic) | Vesicular acetylcholine transporter (Rattus norvegicus, UniProt Q62666) | – | rat liver (sigma2) | – | baseline: Ki sigma2 over Ki VAChT | selectivity ratio | 35
CC(C)CC(O)(CC(C)C)c1cn(C(=O)N2CCCC2)nn1 | Dipeptidyl peptidase 9 (Dpp9, Mus musculus, UniProt Q8BVG4) | probe labelling, inhibitor, competitive ABPP-SILAC, measured: Dpp9 | mouse T cells | concentration not given, 4 h, in situ, protein level | baseline: treated over DMSO, lower = more inhibition | SILAC ratio | 1.28
CON(C(=O)c1cn(C)nc1C(F)F)C(C)Cc1c(Cl)cc(Cl)cc1Cl (stereo not drawn) | SDHD/SDHC/SDHB (Sus scrofa, UniProt A5GZW8+D0VWV4+Q007T0) | enzyme activity, inhibitor, DCIP reduction | pig | 0.6 µM, added: DCIP 40 µM | – | reaction velocity | 0.00527 µM/s and 0.00581 µM/s and 0.00521 µM/s
C[C@H](NCc1ccc(-c2ccc(C(F)(F)F)cc2)cc1)C(N)=O | Tyrosine-protein kinase ABL1, phosphorylated (ABL1, Homo sapiens, UniProt P00519, T315I) | cell-free assay, competition with immobilised ligand | – | 1 µM | – | inhibition | 10%
CC#CC(=O)NC[C@H](NC(=O)[C@H](CC1CCCCC1)NC(=O)[C@H](CCC(N)=O)NC(C)=O)C(=O)N[C@@H](CC(C)C)C(=O)N[C@@H](Cc1ccccc1)C(=O)O | Beta sliding clamp (Escherichia coli, UniProt P0A988) | binding, isothermal titration calorimetry | – | 25 °C | – | -TΔS | 2.1 kcal/mol
CS(C)(=O)=Nc1ccc(-c2ccc(-c3nc4cc(O[C@@H]5CO[C@H]6[C@@H]5OC[C@H]6O)[nH]c4cc3F)cc2)cc1 | Tyrosine-protein kinase ABL1 (ABL1, Homo sapiens, UniProt P00519, M351T) | enzyme activity, inhibitor | – | 10 µM | – | inhibition | -21%

A few entries again:
Structure (SMILES) | target | test | system | setting | how to read | measurement | result
CN(C)CCCSC(=S)N1CCN(C(=O)/C=C/c2coc3ccccc3c2=O)CC1 | Nucleoprotein (N, Tomato spotted wilt virus, UniProt P25999, R94A) | binding, microscale thermophoresis | – | 31.25 µM | dose series | MST response | 843 a.u.
CCOC(=O)[C@@H]1Cc2c(cc([N+](=O)[O-])cc2[N+](=O)[O-])[C@H](O)[C@]12C(=O)Nc1ccc(Br)cc12 | Serine/threonine-protein kinase PLK4 (PLK4, Homo sapiens, UniProt O00444) | binding, competition with immobilised ligand | – | 0.1 µM | – | remaining binding | 45%
